Measurements pooled from the literature.
Protocols differ between the studies behind these lines. “And” joins repeats or separate records; there may be more than shown. Numbers after ± are the reported error.
OVA5: Lysine--tRNA ligase, chloroplastic/mitochondrial (OVA5, Arabidopsis thaliana, UniProt Q9LJE2)
UniProt Q9LJE2, sequence (whole entry, looked up): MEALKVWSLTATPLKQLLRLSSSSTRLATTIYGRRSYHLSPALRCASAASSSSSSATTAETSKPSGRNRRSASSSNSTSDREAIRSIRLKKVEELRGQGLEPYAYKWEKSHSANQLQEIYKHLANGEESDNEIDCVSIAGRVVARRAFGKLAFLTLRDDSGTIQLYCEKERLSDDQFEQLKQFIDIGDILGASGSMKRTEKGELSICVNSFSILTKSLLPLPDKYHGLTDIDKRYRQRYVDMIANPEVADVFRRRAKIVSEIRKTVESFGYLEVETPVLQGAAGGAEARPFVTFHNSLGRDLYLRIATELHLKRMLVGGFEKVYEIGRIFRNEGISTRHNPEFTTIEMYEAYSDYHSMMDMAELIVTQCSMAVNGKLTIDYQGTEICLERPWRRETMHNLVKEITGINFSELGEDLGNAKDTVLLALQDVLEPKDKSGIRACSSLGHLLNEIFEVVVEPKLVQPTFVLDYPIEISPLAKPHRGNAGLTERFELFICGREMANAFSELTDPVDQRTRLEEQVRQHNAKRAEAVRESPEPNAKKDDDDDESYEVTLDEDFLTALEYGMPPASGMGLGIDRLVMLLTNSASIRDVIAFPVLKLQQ
XDH: Xanthine dehydrogenase/oxidase (XDH, Homo sapiens, UniProt P47989)
UniProt P47989, sequence (whole entry, looked up): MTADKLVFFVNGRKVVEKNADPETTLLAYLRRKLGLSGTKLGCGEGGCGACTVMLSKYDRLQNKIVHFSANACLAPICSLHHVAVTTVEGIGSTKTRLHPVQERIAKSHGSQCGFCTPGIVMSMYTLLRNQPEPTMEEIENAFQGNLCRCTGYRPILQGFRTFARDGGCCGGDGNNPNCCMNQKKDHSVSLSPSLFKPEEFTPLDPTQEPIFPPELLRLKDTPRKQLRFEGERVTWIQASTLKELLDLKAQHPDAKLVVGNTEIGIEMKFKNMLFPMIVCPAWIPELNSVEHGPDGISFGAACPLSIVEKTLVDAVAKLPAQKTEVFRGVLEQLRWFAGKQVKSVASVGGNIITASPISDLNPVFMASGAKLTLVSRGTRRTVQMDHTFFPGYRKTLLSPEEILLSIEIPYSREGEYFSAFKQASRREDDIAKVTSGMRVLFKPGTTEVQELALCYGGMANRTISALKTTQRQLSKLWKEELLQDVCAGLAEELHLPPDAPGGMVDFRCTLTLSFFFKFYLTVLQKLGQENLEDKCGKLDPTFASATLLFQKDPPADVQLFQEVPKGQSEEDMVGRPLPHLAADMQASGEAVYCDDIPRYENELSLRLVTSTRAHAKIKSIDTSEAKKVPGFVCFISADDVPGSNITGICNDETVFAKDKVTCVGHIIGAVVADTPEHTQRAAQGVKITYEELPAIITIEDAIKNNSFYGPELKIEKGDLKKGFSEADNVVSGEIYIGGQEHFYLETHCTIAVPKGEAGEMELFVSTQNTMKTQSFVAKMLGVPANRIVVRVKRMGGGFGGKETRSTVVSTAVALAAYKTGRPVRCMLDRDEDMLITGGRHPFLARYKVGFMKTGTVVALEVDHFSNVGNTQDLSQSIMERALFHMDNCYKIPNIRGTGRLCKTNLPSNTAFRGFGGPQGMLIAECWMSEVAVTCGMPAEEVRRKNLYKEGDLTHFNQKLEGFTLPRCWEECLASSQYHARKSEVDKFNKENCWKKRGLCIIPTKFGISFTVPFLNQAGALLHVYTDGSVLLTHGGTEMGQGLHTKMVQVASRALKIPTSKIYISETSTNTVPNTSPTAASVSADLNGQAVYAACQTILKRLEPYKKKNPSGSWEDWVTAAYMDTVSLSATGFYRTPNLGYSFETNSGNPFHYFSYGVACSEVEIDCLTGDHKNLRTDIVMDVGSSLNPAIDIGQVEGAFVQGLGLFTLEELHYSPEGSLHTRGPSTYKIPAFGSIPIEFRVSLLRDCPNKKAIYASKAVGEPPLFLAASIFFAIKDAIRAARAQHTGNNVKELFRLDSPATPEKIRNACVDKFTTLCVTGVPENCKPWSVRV
PIK3CB with p85 alpha: Phosphatidylinositol 4,5-bisphosphate 3-kinase catalytic subunit beta isoform, with p85 alpha (PIK3CB, Homo sapiens, UniProt P42338)
UniProt P42338, sequence (whole entry, looked up): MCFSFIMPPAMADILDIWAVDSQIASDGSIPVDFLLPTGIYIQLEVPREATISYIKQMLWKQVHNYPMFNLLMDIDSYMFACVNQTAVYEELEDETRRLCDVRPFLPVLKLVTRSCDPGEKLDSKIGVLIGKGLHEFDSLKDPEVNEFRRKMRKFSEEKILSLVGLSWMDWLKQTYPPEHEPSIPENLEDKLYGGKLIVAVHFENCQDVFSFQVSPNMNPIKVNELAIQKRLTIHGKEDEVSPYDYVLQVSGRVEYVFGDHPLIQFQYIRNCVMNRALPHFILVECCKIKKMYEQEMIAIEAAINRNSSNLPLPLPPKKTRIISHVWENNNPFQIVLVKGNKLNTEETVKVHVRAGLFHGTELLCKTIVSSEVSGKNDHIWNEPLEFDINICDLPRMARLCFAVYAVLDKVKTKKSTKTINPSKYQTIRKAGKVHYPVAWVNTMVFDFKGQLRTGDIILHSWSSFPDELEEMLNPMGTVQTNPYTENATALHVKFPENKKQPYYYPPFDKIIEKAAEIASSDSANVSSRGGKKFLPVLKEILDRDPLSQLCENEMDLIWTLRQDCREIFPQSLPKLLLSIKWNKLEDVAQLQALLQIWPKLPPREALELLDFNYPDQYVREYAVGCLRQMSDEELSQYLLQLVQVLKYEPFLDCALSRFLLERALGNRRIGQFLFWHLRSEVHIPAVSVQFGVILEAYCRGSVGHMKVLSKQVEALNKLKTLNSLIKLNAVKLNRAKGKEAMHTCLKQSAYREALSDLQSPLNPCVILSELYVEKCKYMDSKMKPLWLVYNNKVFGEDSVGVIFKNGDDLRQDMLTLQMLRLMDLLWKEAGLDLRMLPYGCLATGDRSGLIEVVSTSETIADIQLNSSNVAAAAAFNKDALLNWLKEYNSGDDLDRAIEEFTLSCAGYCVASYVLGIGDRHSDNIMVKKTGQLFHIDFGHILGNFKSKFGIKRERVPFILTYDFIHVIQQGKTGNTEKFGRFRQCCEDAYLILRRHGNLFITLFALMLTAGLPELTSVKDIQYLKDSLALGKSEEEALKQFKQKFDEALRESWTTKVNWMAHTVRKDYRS
IL1RL1 with IL-33: Interleukin-1 receptor-like 1, with IL-33 (IL1RL1, Homo sapiens, UniProt Q01638)
UniProt Q01638, sequence (whole entry, looked up): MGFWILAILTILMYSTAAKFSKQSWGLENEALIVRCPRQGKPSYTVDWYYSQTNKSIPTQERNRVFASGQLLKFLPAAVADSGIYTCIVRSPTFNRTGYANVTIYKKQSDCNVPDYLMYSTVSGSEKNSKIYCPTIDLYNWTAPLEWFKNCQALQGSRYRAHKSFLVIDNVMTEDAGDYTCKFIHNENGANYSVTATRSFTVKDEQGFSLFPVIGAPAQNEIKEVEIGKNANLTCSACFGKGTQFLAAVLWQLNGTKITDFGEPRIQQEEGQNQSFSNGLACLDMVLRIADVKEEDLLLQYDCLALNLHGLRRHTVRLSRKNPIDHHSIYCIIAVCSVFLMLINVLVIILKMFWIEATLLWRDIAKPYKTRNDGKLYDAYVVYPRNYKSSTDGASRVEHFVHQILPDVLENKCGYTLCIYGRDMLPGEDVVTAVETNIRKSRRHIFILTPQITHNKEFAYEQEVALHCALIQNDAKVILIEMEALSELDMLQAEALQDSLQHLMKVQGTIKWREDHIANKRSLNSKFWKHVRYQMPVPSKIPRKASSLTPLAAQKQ
NTRK1: High affinity nerve growth factor receptor (NTRK1, Homo sapiens, UniProt P04629)
PRKACA: cAMP-dependent protein kinase catalytic subunit alpha (PRKACA, Homo sapiens, UniProt P17612)
NR3C1: Glucocorticoid receptor (NR3C1, Homo sapiens, UniProt P04150)
UniProt Q8N884, sequence (whole entry, looked up): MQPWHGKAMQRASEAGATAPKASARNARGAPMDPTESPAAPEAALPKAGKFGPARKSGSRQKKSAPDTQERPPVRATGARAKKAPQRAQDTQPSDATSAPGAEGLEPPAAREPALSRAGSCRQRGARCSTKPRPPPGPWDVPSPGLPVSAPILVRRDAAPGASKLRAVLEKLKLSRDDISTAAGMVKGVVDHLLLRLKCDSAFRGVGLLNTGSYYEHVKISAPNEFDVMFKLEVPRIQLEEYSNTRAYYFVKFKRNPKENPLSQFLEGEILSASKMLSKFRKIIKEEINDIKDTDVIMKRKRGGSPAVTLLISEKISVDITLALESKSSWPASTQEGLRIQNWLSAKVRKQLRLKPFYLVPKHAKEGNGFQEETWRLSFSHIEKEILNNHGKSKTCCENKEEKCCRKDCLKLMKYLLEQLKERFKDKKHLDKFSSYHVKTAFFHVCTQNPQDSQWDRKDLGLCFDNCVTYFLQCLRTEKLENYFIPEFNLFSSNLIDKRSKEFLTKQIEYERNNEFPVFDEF
UniProt P04150, sequence (whole entry, looked up): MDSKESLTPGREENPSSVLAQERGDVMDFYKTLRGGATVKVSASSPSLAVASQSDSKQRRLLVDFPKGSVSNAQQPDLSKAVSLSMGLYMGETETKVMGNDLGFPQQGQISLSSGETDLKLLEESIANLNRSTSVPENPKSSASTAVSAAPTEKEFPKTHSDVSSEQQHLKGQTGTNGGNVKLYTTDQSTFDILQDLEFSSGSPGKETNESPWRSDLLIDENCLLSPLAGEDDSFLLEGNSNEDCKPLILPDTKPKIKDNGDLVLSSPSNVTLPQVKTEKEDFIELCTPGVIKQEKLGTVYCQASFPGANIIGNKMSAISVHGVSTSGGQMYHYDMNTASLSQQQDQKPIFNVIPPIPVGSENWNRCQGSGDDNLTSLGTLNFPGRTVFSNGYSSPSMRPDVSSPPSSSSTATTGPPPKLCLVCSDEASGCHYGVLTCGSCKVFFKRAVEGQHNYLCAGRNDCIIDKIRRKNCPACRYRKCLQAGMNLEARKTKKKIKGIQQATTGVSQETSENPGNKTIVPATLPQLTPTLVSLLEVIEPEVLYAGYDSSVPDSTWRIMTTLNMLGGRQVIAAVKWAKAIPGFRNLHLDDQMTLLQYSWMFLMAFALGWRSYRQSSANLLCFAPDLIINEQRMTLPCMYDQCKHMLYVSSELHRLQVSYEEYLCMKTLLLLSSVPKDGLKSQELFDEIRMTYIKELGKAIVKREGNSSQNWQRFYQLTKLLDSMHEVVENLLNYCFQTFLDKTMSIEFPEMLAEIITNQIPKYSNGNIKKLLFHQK

With `Nc1nsc(C(=O)NC[C@@H]2CCCC[C@@H]2Cl)c1Cl` the IC50 was 10 µM (OVA5; enzyme activity, inhibitor).
The IC50 of `O=C(NCC1CCOCC1)c1n[nH]cc1NC(=O)c1c(F)cccc1F` is reported as 2.39 µM (DYRK1B (Homo sapiens, UniProt Q9Y463); target engagement, NanoBRET; cells).
With `Cc1ccc(CNC2=N[C@H](CO)[C@H](O)[C@H](O)C2)cc1` the IC50 was over 5000 µM (sweet almond β-glucosidase; enzyme activity, inhibitor; pH 5.00, added: 2-chloro-4-nitrophenyl β-D-glucopyranoside).
`Cc1cccc(-n2ncc(Cl)c(Cl)c2=O)c1` has an IC50 of 229 ± 250 µM (XDH; enzyme activity, inhibitor).
The IC50 of `Cc1c(Cc2ccccc2)c(=O)oc2c(C)c(OCC(=O)NN=Cc3ccco3)ccc12` is reported as 0.484 ± 0.0289 µM (PIK3CB with p85 alpha; enzyme activity, inhibitor, ADP-Glo).
With `Cc1nn2c(-c3c(C)nn(C)c3-c3ccc(C(F)(F)F)cc3)nc(CO)c2c(=O)[nH]1` the IC50 was 1.77 µM (PDE5A (Homo sapiens, UniProt O76074); enzyme activity, inhibitor, scintillation proximity).
With `COc1c(N)nsc1C(=O)NCC1CCCCC1` the IC50 was 50.1 µM (OVA5; enzyme activity, inhibitor).
`O=[N+]([O-])c1ccccc1-c1ccc(CN2CCCC2c2cccc(N3CCCC3)c2)o1` (centres unmarked) has an IC50 of < 10 µM and 5 to 7 µM (IL1RL1 with IL-33; binding, AlphaLISA).
`O=C(O)c1cccnc1Nc1cccc(C(F)(F)F)c1` gave an IC50 of 0.603 µM (SLC4A1 (Homo sapiens, UniProt P02730); anion transport, inhibitor, Dixon plot; human erythrocytes).
With `COCC#Cc1c(N)nsc1C(=O)NCC1CCCCC1` the IC50 was 79.4 µM (OVA5; enzyme activity, inhibitor).
`Cc1cc(Nc2ncc(Cl)c(Nc3ccccc3S(=O)(=O)C(C)C)n2)c(OC(C)C)cc1C1CCNCC1` gave an IC50 of over 3.3 µM (NTRK1; enzyme activity, inhibitor; added: 1 mM ATP).
The IC50 of `CC(C)(C)Cn1c(N)nc2ccc(-c3[nH]c(C(C)(C)C)nc3-c3ccc(F)cc3)nc21` is reported as 0.011 to 0.246 µM (EGFR common activating mutants; enzyme activity, inhibitor; added: 1 mM ATP).
For `C[C@H]1Oc2cc(cnc2N)-c2c(nn(C)c2C#N)CN(C)C(=O)c2ccc(F)cc21`, the IC50 was 0.126 µM (NTRK1; enzyme activity, inhibitor; added: 1 mM ATP).
For `COc1cc(Cl)c(C(=O)N[C@@H](CN[C@H]2CC[C@@H](N)CC2)Cc2ccc(C#N)cc2)cc1-c1ccc(CN[C@H](C)c2ccc(C)cc2)o1`, the IC50 was 0.0221 µM (ATPase family AAA domain-containing protein 2, bromodomain (ATAD2, Homo sapiens, UniProt Q6PL18); binding, TR-FRET; added: peptide, histone H4, tetra-acetylated).
With `Cc1ncc(C2=CN(c3ncnc4[nH]cc(C)c34)CCS2)o1` the IC50 was over 10 µM (PRKACA).
With `CC/C(=N\NC(=O)NCc1cccc(O)c1)c1ccc(O)c(C)c1O` the IC50 was 0.00871 ± 0.0003 µM (PRKACA; kinase activity, inhibitor).
`Nc1nsc(C(=O)NCc2ccc(F)cc2F)c1Cl` gave an IC50 of 39.8 µM (OVA5; enzyme activity, inhibitor).
The IC50 of `COc1c([C@H]2[C@H](C(=O)Nc3ccnc(C(N)=O)c3)O[C@@](C)(C(F)(F)F)[C@H]2C)ccc(F)c1F` is reported as at least 30 µM (NR3C1; functional activity, antagonist).
`Cc1nn(-c2nc3ccccc3[nH]2)c(O)c1C(c1ccccc1C(=O)O)c1c(C)nn(-c2nc3ccccc3[nH]2)c1O` gave an IC50 of 4.29 µM and 8.13 µM (CGAS (Homo sapiens, UniProt Q8N884); enzyme activity, inhibitor, pyrophosphatase-coupled; human cGAS).
`C[C@]1(Cn2ccnn2)[C@H](C(=O)O)N2C(=O)C[C@H]2S1(=O)=O` has an IC50 of 9 µM (beta-lactamase RAD-1 (Riemerella anatipestifer); enzyme activity, inhibitor, spectrophotometric reporter substrate hydrolysis).
`Cn1nccc1C1=CN(c2ncnc3[nH]ccc23)CCS1` gave an IC50 of over 10 µM (PRKACA).
For `C#Cc1c(N)nsc1C(=O)NCc1ccc(F)cc1F`, the IC50 was 39.8 µM (OVA5; inhibitor).
With `C1=C(c2cccnc2)SCCN1c1ncnc2[nH]ccc12` the IC50 was over 10 µM (PRKACA).
`Cc1ncsc1-c1ccc(CNC(=O)[C@@H]2C[C@H](O)CN2C(=O)[C@@H](NC(=O)C2(F)CC2)C(C)(C)C)c(OCCOc2ccc(CN3CCN(c4cc(-c5ccccc5O)nnc4N)CC3)cc2)c1` gave an IC50 of 0.54 µM (SWI/SNF-related matrix-associated actin-dependent regulator of chromatin subfamily A member 4, bromodomain (SMARCA4, Homo sapiens, UniProt P51532); binding, TR-FRET competition; binary without VCB).
With `O=C(Nc1cccc2c(=O)cc(-c3nnn[nH]3)oc12)c1ccc(OCCCCc2ccccc2)cc1` the IC50 was 1.4 µM (LRRC8A/LRRC8C (Homo sapiens, UniProt Q8IWT6+Q8TDW0, L134K/L136K); ion current, inhibitor, whole-cell patch clamp; HCT116 LRRC8-/- transfected; at +100 mV).
For `CC(=O)c1n[nH]c2ccc(-c3cnc4ccc(N(C)C5CCOCC5)nn34)cc12`, the IC50 was 3.4 ± 1.6 µM (Triggering receptor expressed on myeloid cells 1, dimer (TREM1, Homo sapiens, UniProt Q9NP99); split luciferase reporter; human cells; 6 h, treatment 48 h after induction, added: doxycycline induction).
`N[C@H]1CCCN(C(=O)C2=CN(c3ncnc4[nH]ccc34)CCS2)C1` has an IC50 of under 0.1 µM (PRKACA).
The IC50 of `CCn1c(-c2nc3ccc(C(=O)N4CCCC(N)C4)cc3n2C)cc2ccccc21` (centres unmarked) is reported as over 31.6 µM (PIK3CG (Homo sapiens, UniProt P48736); TR-FRET).
`O=c1cc2oc3cc(O)c(-c4ccc(O)cc4O)cc3nc-2cc1-c1ccc(O)cc1O` gave an IC50 of over 75 µM (XDH; enzyme activity, inhibitor).
With `Cc1ncc(C2=CN(c3ncnc4[nH]ccc34)CCS2)o1` the IC50 was over 10 µM (PRKACA).
The IC50 of `Cc1cc([C@@H](C)Nc2ccccc2C(=O)O)c2nc(N3CCCCC3)cc(=O)n2c1` is reported as 5.52 µM (PIK3CB with p85 alpha; ADP-Glo; added: ATP 10 µM).
The IC50 of `Cc1cc(N2C=C(c3ccnc4[nH]ccc34)SCC2)nc(C(C)(C)C)n1` is reported as over 10 µM (PRKACA).
With `Nc1nsc(C(=O)NC2CCC3(CC2)CC3(F)F)c1Cl` (centres unmarked) the IC50 was over 100 µM (OVA5; enzyme activity, inhibitor).
The IC50 of `COc1ccc(-c2cc(Cl)c(C(=O)N[C@@H](CNC(=O)CNC(=O)c3cccc(NC(=N)N)c3)C(=O)O)c(Cl)c2)cn1` is reported as 0.00501 µM (Integrin alpha-5/beta-1 (Homo sapiens, UniProt P05556+P08648); cell adhesion, inhibitor; SW480; added: fibronectin 0.3 µg/mL).
`Cc1cnc(-c2ccc(-c3ccc(NC(=O)Nc4c(F)cc(F)cc4F)cc3F)c3c2C(=O)NC3)[nH]1` has an IC50 of 0.0148 µM (Aurora kinase C (AURKC, Homo sapiens, UniProt Q9UQB9); enzyme activity, inhibitor, mobility shift; added: ATP 1 mM).
The IC50 of `Sc1ncnc2nc[nH]c12` is reported as 26.9 µM (CUGBP Elav-like family member 1 (CELF1, Homo sapiens, UniProt Q92879, del215-384); CELF1-RNA binding, inhibitor, fluorescence polarization; CELF1 20 nM, preincubation 30 min, added: RNA 10 nM).
`O=c1cc(-c2ccc(O)c(O)c2)oc2cc(O[C@@H]3O[C@H](CO)[C@@H](O)[C@H](O)[C@H]3O)cc(O)c12` has an IC50 of 110 ± 19.9 µM (LDHB (Homo sapiens, UniProt P07195); enzyme activity, inhibitor; purified enzyme).
`C[C@H](NC(=O)c1snc(N)c1Cl)C1CCCCC1` has an IC50 of 25.1 µM (OVA5; enzyme activity, inhibitor).
For `O=P(O)(O)C(CNc1ccccc1)P(=O)(O)O`, the IC50 was 975 µM (polyphosphate kinase 2 (Cytophaga hutchinsonii, UniProt A0A6N4SMB5); enzyme activity, inhibitor, HPLC; 30 min, 37 °C, added: 0.04 mM ADP and 0.3 mM polyP).
`CN1CCN(c2ccc(Nc3ncc4cc(C#N)c(=O)n(C5CCCC5)c4n3)cc2)CC1` gave an IC50 of 9.84 µM (STK26 (Homo sapiens, UniProt Q9P289)).
For `CCN(CC)C(=S)S`, the IC50 was over 75 µM (XDH; enzyme activity, inhibitor).
`CC[C@@H]1[C@H](F)C(=O)N[C@@H]1COc1nccc2cc(C(N)=O)c(OC)cc12` gave an IC50 of over 5 µM (AKT1 (Homo sapiens, UniProt P31749); kinase activity, inhibitor, ActivX ATP-site probe profiling; THP-1 cell lysate; ATP loop site).
With `C[C@]12CC[C@@H]3c4ccc(O)cc4C[C@@H](CCCCCCCCC[S+]([O-])CCCC(F)(F)C(F)(F)F)[C@H]3[C@@H]1CC[C@@H]2O` (some centres unmarked) the IC50 was over 10 µM (NR3C1; GR receptor activity, agonist, cell-based).
For `C1=C(c2cccnc2)SCCN1c1ncnc2[nH]cnc12`, the IC50 was over 10 µM (PRKACA).
The IC50 of `Cc1cc([N+](=O)[O-])ccc1-c1ccc(CN2CCCC2c2ccc(N(C)C)cc2)o1` (centres unmarked) is reported as under 10 µM (IL1RL1 with IL-33; binding, AlphaLISA).
`CCn1c(-c2nc3cc(C(=O)N4CCC[C@@H](N)C4)cc(OC)c3n2C)cc2cccnc21` has an IC50 of 6.31 µM (HTR3A (Homo sapiens, UniProt P46098); intracellular calcium, antagonist, fluorescence).
With `Nc1cc(C(=O)NCc2ccc(F)cc2F)sn1` the IC50 was 63.1 µM (OVA5; enzyme activity, inhibitor).
